Assay results from different studies.
Parts stem from different laboratories: compare values within a part only. Positions count from the first letter of the parent shown.

Block 1
Target: CCND2, cyclin fold, Cln2 fusion (human)
Technique: yeast growth competition, sequencing
Medium: yeast
Setting: weak parent motif
Relative to: not given
Reading: higher = stronger binding
Starting sequence: ORC1 docking peptide (human); PRARKRLELGNLG; partner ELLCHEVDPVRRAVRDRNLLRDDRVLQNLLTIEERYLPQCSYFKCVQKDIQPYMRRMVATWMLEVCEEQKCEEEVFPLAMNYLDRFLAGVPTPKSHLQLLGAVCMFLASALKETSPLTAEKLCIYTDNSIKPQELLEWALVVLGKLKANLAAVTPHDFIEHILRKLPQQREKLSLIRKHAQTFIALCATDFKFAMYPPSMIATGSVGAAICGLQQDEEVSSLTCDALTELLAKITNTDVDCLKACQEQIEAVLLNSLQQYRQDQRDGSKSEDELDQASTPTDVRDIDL
Change | normalised enrichment score
G13F | -0.241
L12W | 0.402
L7N | -0.278
R2D | 0.261
L9K | 0.282
K5W | -0.121
G10P | -0.0787
E8M | 0.0427
L7A | -0.0922
L12E | 0.26
G10L | 0.559
N11A | 0.367
L9P | -0.323
L12F | 0.00756
K5V | -0.112
K5I | 0.0128
P1Q | 0.361
L7M | -0.108
N11H | 0.0707
E8T | -0.126
R6N | 0.129
A3H | 0.33
L7V | -0.314
N11Q | -0.346
K5R | 0.0856

Block 2
Target: Sal-like protein 4, full length isoform B (SALL4, Homo sapiens, UniProt Q9UJQ4-2, residues 1-616)
Technique: universal PBM
Form: double-stranded DNA, one strand shown
Medium: in vitro
Concentration: not given
Setting: 8-mer, flanks averaged, mean of replicates
Reading: higher = stronger binding
Residues (chain): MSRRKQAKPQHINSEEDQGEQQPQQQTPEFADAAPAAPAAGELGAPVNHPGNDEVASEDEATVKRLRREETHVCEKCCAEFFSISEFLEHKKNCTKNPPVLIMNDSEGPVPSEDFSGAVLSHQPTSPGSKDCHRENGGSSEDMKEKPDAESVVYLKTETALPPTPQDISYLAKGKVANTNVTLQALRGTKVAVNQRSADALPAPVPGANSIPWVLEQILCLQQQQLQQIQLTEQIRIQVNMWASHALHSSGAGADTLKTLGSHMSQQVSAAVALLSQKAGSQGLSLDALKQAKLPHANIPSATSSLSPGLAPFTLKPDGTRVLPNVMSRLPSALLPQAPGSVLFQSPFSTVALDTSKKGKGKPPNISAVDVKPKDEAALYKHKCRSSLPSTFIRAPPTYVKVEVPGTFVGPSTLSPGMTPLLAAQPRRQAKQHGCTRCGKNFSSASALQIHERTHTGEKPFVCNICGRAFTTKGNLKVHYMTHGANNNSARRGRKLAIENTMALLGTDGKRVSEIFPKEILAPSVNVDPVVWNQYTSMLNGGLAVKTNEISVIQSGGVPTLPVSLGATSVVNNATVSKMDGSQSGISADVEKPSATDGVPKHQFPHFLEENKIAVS
Sequence | E-score
ACCAAAAC | 0.171
CCCTCCTA | -0.207
GTGCTACA | 0.125
TCGCGCAA | 0.0782
GCTAGTCA | -0.0854
GCGCACGA | -0.269
CTTGGTGC | -0.0713
GTTAACCA | -0.00822
GATCTCCA | -0.195
AAAGCAGT | -0.0301
GCAACTAC | 0.0966
CAAGCTAC | -0.051
CACAGAGC | -0.183
ATCCGCTG | -0.312
ACGCTAAG | -0.116
GCGAGAGC | -0.226
ATCGAGAA | 0.0545
CTGCTAGC | -0.23
GGATATAA | 0.169
ACGTGACT | -0.0305
AACTTAAG | 0.0964
CCTTTGCG | -0.0142
GCCTGTAC | -0.0566
CGATCTTC | -0.0669

Block 3
Target: ABI1, truncated, D143A, DHFR fusion (Arabidopsis thaliana)
Technique: DHFR PCA, deep sequencing
Medium: yeast
Setting: methotrexate growth selection, single substitutions
With: (+)-ABA 2500 µM
Relative to: wild-type fitted maximum
Reading: higher = stronger binding
Starting sequence: PYL1, truncated, DHFR fusion (Arabidopsis thaliana); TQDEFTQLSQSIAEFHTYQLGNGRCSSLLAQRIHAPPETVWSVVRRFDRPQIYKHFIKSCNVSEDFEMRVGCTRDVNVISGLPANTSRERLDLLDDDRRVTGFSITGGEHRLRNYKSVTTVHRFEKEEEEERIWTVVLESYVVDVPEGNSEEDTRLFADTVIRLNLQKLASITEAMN
Change | relative binding score [%]
E129Y | 101
Q19S | 99.3
V62N | 81.5
I105C | 98
N85S | 99.7
D92R | 82.8
E128T | 111
V70A | 96.9
V44Y | 41.1
H16S | 36.5
V100H | 87.4
R155A | 87
E127L | 100
Q7W | 105
Y115H | 45.3
I133M | 102
N22V | 101
Q167K | 96.1
S63L | 95.2
T119L | 106
Q7T | 99.7
S140N | 22.6

Block 4
Target: Interferon regulatory factor 7, full length, phosphomimetic (IRF7, Homo sapiens, UniProt Q92985, residues 1-503, S471D/S472D/S475D/S476D/S477D/S483D/S484D/S487D)
UniProt Q92985, sequence (whole entry, unmodified, looked up): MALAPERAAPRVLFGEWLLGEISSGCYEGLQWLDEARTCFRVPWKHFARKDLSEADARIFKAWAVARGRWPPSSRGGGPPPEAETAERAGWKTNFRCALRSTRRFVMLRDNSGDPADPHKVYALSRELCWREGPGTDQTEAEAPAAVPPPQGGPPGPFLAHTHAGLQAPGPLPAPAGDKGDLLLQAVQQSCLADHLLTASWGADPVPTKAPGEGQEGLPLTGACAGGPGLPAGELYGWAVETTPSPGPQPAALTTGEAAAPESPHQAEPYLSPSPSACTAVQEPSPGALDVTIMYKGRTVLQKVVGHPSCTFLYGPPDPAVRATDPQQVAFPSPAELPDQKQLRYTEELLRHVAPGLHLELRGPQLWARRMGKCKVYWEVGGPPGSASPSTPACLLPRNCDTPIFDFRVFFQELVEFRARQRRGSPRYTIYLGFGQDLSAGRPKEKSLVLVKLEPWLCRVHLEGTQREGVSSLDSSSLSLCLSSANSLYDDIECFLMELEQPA
Technique: protein-binding microarray
Form: double-stranded DNA, one strand shown
Medium: in vitro
Concentration: 2200 nM top
Setting: 60-bp whole probe
With: salmon DNA 0.4 mg/ml
Relative to: random background probes
Reading: higher = stronger binding
Shared flanks, not repeated: GCCTAGCAC … GTCTTGATTCGCTTGACGCTGCTG
Sequence | fitted relative affinity [z-score]
TTAGGTATCCTTCTCATTTAGTGCTAG | 0.801
GTTTATTTATTTTTACATTAGTGCTAG | 1.42
AAGTTTCTCCTTTGTAAATAGTGCTAG | 2.7
TCAAGCCTCTGTTTTGAACTGTGCTAG | 0.826
TCATACATGGGTATAGAACTGTGCTAG | 0.243
CTCCCCTTGCTTTCCAATTCGTGCTAG | 2.51
TTATGTCTCGGTCTCGGTTAGTGCTAG | 1.48
GACGGTTTCGGTCTCGGGTCGTGCTAG | 7.26
CTTCCCCTCTAGGTTCTCTGAGTGCTA | 1.25
TCATATTTACCTCTCACACTGTGCTAG | 1.75
GACGGACTGGACTTTCGGGTCGTGCTA | 5.55
GACGGTATCCTTCGCCTGACGTGCTAG | 0.88
TCAGAATTTACTTTCTAACTGTGCTAG | 1.26
TTAGGTCTCGGACTGGGATAGTGCTAG | -0.408
TTAGATTTGAGTTTCGATTAGTGCTAG | 4
TCAGTTTTAAATTCTAAACTGTGCTAG | 0.583
TCAGCTTTCTTTTTGCAACTGTGCTAG | 4.61
TTATGTATCGACTTTCGGTTAGTGCTA | 7.05
ACTGATCACCGATTTCCTTCAGTGCTA | 1.49
GACGCTTTCAGTCTCGAGACGTGCTAG | 2.23

Block 5
Target: Ras GTPase-activating protein-binding protein 1, full length (G3BP1, Homo sapiens, UniProt Q13283)
UniProt Q13283, sequence (whole entry, looked up): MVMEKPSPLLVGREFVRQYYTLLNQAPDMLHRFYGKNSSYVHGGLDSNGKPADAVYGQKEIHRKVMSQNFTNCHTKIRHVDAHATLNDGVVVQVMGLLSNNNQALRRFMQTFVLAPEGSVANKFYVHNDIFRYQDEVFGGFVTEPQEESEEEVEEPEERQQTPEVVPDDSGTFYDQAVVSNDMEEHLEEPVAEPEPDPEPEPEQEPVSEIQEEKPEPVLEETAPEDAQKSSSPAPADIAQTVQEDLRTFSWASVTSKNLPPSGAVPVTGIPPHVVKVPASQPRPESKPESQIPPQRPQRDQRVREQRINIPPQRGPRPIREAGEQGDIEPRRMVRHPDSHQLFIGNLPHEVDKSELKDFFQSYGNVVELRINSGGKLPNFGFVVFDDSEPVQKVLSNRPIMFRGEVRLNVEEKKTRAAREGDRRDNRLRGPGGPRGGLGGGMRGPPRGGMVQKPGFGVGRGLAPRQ
Technique: RNA Bind-n-Seq
Form: RNA
Medium: in vitro
Concentration: 200 nM
Setting: whole 134-nt RNA, ends assumed
With: 150 mM LiCl
Relative to: input library
Reading: higher = stronger binding
Each molecule: 7-deaza-guanosine replaces G
Shared flanks, not repeated: GGGAGUUCUACAGUCCGACGAUC … UGGAAUUCUCGGGUGUCAAGG
Sequence | log2 enrichment
CCUGUGCUACACAUCGUAUGUACCGAAUCGGGGAAAGGGGUUUUUUUGGGGAAAAAGGGGAAAGUAUUAUGUUACGCCGUUCGGAUCUGC | 0.449
CCUCAAGUCCUGUGCUACACAUCGUAUGUACCGAAUCGGAAAAAGGUGGUGGAAAGUAUUAUGUUACGCCGUUCGGAUCUGCACUUCCAG | -0.0355
UCCUGUGCUACACAUCGUAUGUACCGAAUCGGGGAAAAAAAGGGGAAAAAGGGGAGGGGAAAGUAUUAUGUUACGCCGUUCGGAUCUGCA | 0.0915
AGUCCUGUGCUACACAUCGUAUGUACCGAAUCGGCCCCGGGGCCCCGGGGCCCCGGGAAAGUAUUAUGUUACGCCGUUCGGAUCUGCACU | -2.39
ACCAUGCAGGUGGGCAUCUUUGGGAAGUGGGGCAAGGGGGGGAUAGGGAGGGGGGUAACACUUUGGGAACAGGUGGUCCCAGGUCGUUCC | 0.108
UAACUUUAGAGGAGGAUCUGAUGGAUAUGGCAGUGGACGUGGAUUUGGGGAUGGCUAUAAUGGGUAUGGAGGAAGACCUGGAGGUGGCAA | -0.337
GUCCUGUGCUACACAUCGUAUGUACCGAAUCGGGAAAAAAAGGGUUUGGGAAAAAGGGAAAGUAUUAUGUUACGCCGUUCGGAUCUGCAC | -2.02
GUCCUGUGCUACACAUCGUAUGUACCGAAUCGGGGCCCCGGGGCCCCGGGGCCCCGGGAAAGUAUUAUGUUACGCCGUUCGGAUCUGCAC | -0.0682
AACUAAUACUCUUAAAUGGUCUUUCAGUAUAGUGGUUCUUACGUAGUUUAACAUAGCUAUAAAUUGAGUUUAACAAUUUAUAAACUCAAG | 0.708
UGGCCCUGGUGGCAUGCGGGGAGGAAGAGGUGGCCUCAUGGAACGUGGUGGUCCCGGUGGAAUGUUCAGAGGUGGCCGUGGUGGAGACAG | 0.0106
AAGUCCUGUGCUACACAUCGUAUGUACCGAAUCGGCCCCGGGGCCCCGGCCCCGGGGAAAGUAUUAUGUUACGCCGUUCGGAUCUGCACU | -1.53

A few entries again (block 2):
Sequence | E-score
AACTTAAG | 0.0964
GCGCACGA | -0.269
GCGAGAGC | -0.226
CACAGAGC | -0.183
GGATATAA | 0.169
ACGTGACT | -0.0305
CGATCTTC | -0.0669
ATCGAGAA | 0.0545
CCTTTGCG | -0.0142
